Published values gathered from unrelated publications.
Each numbered part is a random draw from the data of one study; scales do not carry over between parts.
Sequence of UniProt P00519 (whole entry, looked up): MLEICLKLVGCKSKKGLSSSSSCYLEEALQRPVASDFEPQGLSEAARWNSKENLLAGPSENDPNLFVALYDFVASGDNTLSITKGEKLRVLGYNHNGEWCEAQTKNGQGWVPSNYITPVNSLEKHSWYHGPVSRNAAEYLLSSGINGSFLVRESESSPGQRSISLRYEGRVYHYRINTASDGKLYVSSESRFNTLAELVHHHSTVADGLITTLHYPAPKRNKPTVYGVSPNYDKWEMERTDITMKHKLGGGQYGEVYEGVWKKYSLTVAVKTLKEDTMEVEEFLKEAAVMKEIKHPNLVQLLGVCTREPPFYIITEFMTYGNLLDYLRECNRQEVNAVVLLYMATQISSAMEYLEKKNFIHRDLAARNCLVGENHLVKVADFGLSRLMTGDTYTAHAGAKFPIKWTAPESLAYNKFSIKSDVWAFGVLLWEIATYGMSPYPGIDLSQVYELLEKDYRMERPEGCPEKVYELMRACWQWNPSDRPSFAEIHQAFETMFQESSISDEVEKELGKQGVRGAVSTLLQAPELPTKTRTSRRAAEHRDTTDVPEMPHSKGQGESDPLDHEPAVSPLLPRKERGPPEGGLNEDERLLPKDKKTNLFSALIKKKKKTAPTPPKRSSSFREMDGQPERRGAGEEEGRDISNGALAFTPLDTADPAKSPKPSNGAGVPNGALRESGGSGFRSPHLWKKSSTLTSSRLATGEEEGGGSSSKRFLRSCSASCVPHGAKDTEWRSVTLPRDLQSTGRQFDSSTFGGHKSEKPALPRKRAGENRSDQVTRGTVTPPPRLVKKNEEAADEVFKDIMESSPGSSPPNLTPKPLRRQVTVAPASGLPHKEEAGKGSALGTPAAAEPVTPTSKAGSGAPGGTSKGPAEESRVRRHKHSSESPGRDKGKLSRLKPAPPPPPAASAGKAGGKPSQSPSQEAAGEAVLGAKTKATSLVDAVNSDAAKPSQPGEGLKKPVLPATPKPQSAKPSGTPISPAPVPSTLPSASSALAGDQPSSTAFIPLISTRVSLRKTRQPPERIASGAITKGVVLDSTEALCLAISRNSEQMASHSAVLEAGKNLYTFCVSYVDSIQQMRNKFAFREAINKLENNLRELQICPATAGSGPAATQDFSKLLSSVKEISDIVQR
Sequence of UniProt Q9Y2H1 (whole entry, looked up): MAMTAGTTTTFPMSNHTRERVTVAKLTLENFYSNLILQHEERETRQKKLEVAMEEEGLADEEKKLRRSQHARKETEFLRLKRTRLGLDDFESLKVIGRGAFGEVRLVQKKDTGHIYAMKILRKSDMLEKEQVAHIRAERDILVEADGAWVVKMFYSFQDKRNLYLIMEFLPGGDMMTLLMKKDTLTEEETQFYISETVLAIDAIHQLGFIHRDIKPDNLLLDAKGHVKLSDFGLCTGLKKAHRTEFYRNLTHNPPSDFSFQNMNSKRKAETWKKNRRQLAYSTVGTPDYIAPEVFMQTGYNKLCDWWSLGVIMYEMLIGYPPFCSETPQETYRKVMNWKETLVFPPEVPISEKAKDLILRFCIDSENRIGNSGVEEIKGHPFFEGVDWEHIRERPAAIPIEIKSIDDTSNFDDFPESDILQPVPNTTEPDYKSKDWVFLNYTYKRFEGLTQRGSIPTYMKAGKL
Sequence of UniProt P68400 (whole entry, looked up): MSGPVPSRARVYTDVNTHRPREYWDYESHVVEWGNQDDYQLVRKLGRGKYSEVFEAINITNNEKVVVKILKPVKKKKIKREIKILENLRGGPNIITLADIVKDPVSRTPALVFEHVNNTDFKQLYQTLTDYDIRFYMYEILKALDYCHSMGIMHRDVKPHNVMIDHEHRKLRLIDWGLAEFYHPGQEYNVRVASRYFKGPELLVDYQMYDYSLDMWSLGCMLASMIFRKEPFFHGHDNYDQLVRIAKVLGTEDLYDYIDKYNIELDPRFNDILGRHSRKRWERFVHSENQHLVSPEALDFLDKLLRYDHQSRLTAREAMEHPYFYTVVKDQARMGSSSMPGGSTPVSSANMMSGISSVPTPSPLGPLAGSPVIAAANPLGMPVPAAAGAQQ
Sequence of UniProt Q8N568 (whole entry, looked up): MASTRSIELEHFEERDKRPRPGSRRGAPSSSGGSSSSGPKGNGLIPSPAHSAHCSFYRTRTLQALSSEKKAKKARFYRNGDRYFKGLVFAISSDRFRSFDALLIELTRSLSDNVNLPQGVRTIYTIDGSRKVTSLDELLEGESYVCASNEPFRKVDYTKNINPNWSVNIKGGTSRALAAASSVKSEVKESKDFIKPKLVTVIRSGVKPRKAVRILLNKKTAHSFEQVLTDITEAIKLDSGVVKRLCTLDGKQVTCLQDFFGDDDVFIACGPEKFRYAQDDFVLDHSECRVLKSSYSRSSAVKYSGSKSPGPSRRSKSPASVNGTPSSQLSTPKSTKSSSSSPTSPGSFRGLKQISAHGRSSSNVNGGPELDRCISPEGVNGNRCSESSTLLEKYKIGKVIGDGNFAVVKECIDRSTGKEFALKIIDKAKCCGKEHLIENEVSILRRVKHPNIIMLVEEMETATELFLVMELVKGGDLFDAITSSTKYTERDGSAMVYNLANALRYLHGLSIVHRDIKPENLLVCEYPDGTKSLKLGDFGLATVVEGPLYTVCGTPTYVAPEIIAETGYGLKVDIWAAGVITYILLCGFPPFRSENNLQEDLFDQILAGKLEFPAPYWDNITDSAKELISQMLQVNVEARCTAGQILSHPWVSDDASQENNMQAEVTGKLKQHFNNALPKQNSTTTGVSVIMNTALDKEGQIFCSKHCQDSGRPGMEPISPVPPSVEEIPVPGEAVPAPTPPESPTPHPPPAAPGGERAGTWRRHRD
Sequence of UniProt P53778 (whole entry, looked up): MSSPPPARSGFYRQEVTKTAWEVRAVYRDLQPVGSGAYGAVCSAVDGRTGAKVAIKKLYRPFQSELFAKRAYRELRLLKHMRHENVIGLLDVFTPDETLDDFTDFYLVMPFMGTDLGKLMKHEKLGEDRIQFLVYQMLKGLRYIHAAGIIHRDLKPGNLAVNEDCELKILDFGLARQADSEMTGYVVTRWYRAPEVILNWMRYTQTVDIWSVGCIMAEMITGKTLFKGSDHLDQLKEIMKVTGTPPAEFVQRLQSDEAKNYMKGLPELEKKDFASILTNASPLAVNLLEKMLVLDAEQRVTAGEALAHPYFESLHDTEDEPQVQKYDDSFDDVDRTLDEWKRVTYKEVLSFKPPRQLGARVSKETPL
Sequence of UniProt P54756 (whole entry, looked up): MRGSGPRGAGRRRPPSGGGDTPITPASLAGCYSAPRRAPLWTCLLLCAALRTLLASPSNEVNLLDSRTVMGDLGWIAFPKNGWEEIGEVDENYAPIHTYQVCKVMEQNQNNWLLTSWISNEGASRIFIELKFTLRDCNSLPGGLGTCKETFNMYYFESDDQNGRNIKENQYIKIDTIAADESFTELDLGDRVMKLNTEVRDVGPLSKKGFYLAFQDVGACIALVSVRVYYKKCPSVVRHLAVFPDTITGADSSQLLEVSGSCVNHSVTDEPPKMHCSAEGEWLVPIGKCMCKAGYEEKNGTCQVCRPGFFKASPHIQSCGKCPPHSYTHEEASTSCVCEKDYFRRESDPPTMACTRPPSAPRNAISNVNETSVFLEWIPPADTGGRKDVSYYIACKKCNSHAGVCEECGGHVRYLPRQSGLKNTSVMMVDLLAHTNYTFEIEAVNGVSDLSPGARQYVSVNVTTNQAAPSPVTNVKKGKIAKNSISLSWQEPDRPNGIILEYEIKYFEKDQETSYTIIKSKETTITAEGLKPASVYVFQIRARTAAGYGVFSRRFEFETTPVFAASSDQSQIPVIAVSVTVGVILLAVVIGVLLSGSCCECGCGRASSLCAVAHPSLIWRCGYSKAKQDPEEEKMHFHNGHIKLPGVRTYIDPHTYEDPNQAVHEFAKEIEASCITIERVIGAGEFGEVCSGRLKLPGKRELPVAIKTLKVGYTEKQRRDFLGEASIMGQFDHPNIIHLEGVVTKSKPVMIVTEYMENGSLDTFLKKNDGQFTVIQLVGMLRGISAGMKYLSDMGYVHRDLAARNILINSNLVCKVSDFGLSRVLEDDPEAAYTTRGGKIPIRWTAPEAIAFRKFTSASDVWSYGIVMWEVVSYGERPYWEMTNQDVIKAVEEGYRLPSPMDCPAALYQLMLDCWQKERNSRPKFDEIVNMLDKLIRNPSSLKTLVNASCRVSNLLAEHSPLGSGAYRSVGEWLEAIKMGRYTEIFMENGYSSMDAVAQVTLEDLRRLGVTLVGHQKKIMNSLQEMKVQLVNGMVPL
Sequence of UniProt O60331 (whole entry, looked up): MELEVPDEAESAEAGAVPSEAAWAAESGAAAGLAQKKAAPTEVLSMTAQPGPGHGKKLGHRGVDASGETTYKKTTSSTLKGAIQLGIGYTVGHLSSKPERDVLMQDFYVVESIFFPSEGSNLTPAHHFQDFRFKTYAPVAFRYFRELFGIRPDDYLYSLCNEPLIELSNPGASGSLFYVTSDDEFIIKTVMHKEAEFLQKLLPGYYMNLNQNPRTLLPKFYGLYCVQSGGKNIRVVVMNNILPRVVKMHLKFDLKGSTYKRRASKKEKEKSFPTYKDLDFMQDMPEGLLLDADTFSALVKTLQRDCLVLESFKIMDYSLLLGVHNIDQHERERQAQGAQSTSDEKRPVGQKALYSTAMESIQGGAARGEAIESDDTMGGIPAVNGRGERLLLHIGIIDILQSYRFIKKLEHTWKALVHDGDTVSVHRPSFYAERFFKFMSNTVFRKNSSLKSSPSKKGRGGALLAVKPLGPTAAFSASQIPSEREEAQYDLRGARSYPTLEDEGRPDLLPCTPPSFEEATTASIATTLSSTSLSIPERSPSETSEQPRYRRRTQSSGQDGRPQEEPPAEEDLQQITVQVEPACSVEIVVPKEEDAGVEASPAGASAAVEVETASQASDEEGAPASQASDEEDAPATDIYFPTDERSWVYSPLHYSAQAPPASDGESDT

Sample 1 — observed: enzyme activity; mode: inhibitor; tested at: 1 µM
SMILES: CC#CC(=O)N1CCC[C@H]1c1nc(-c2ccc(C(=O)Nc3ccccn3)cc2)c2c(N)nccn12
| target | inhibition [%] |
| --- | --- |
| EGFR (Homo sapiens, UniProt P00533) | 22 |
| EPHA8 (Homo sapiens, UniProt P29322) | 2 |
| EPHB6 (Homo sapiens, UniProt O15197) | 5 |
| FES (Homo sapiens, UniProt P07332) | 3 |
| DCLK2 (Homo sapiens, UniProt Q8N568) | 14 |
| EPHA5 (Homo sapiens, UniProt P54756) | 8 |
| MERTK (Homo sapiens, UniProt Q12866) | 0 |

Sample 2 — species: human; sample: microsomes or S9; tested at: 2 µM; time: 0.5 h
| SMILES | remaining compound [%] |
| --- | --- |
| COc1cccc2c(C(C(=O)O)N3CCN(C4=Nc5ccccc5Oc5ccccc54)CC3)c[nH]c12 (centres unmarked) | 87.8 |
| COC(=O)[C@@H]1C[C@H](C(=O)OC)CN(c2ccnc(N3C[C@H](C(=O)OC)C[C@H](C(=O)OC)C3)n2)C1 | 52.2 |
| COc1cc(Br)c(S(=O)(=O)NC2CCN(S(=O)(=O)c3ccccc3)CC2)cc1OC | 93.6 |
| Cc1ccsc1C1Nc2ccc3ncccc3c2C2=C1C(=O)CCC2 (centres unmarked) | 45.7 |
| CN(CC(=O)O)C(=O)c1cc(S(=O)(=O)N(C)C)cs1 | 80.4 |
| COc1ccc(N2C(=O)/C(=C\NN(C)C)c3ccccc3C2=O)cc1 | 91.5 |
| CC(C)=CCn1c(COc2ccc(Br)cc2Cl)noc1=O | 78.5 |
| O=C(CNS(=O)(=O)c1cc(-c2noc(C3CCC3)n2)cs1)N1CCN(c2ccccc2)CC1 | 3.19 |
| CCC(C(=O)Nc1c(C)cc(C)cc1C)n1nc(C)c2c(C)onc2c1=O (centres unmarked) | 34.9 |
| Cc1cc(-c2cc(O)cc(CCC3CCCCN3)c2)ccn1 (centres unmarked) | 6.43 |
| CCC1CCCCN1C(=O)c1sc2nc(C)nc(N(CC)CC)c2c1C (centres unmarked) | 0.207 |
| COC(=O)Nc1nc2cc(C(=O)c3ccccc3C(=O)OC(C)C)ccc2[nH]1 | 47.3 |

Sample 3 — method: competition with immobilised ligand; tested at: 1 µM
Structure (SMILES): C[C@@H](c1cccc(C#N)c1)n1cc(Cl)cc(C(N)=O)c1=N
| target | test | remaining binding |
| --- | --- | --- |
| HIPK3 (Homo sapiens, UniProt Q9H422) | cell-free assay | 70% |
| PRKCQ (Homo sapiens, UniProt Q04759) | cell-free assay | 86% |
| LATS1 (Homo sapiens, UniProt O95835) | cell-free assay | 69% |
| MAPK12 (Homo sapiens, UniProt P53778) | cell-free assay | 73% |
| CDK5 (Homo sapiens, UniProt Q00535) | cell-free assay | 92% |
| CSNK1A1L (Homo sapiens, UniProt Q8N752) | cell-free assay | 82% |
| CLK2 (Homo sapiens, UniProt P49760) | cell-free assay | 100% |
| STK38 (Homo sapiens, UniProt Q15208) | cell-free assay | 84% |
| PIP5K1C (Homo sapiens, UniProt O60331) | cell-free assay | 100% |
| EGFR (Homo sapiens, UniProt P00533, del747-750/T751S) | cell-free assay | 100% |
| Tyrosine-protein kinase ABL1, non-phosphorylated (ABL1, Homo sapiens, UniProt P00519) | cell-free assay | 82% |
| MUSK (Homo sapiens, UniProt O15146) | cell-free assay | 100% |
| MAPK7 (Homo sapiens, UniProt Q13164) | cell-free assay | 88% |
| Aurora kinase B (AURKB, Homo sapiens, UniProt Q96GD4) | cell-free assay | 100% |
| CSNK2A1 (Homo sapiens, UniProt P68400) | cell-free assay | 72% |
| CSF1R (Homo sapiens, UniProt P07333) | cell-free assay | 100% |
| STK38L (Homo sapiens, UniProt Q9Y2H1) | binding | 85% |

Sample 4 — dose: dose not given; baseline: vehicle
Compound: CC(=O)N[C@@H](Cc1c[nH]c2ccccc12)C(=O)N[C@@H](CCC(=O)C=[N+]=[N-])C(=O)OC(C)C
| test | test system | log2 fold change |
| --- | --- | --- |
| refers to: quinolinate | mouse, EL4 tumour-bearing, EL4 tumour | 0.241 |
| metabolomics, refers to: inosine 5'-monophosphate | mouse, EL4 tumour | 0.13 |
| refers to: phenylalanine | mouse, EL4 tumour-bearing, EL4 tumour | 0.262 |
| refers to: N-acetyl-aspartyl-glutamate | Mus musculus, EL4 tumour | -0.146 |
| refers to: gamma-glutamylglutamine | mouse, EL4 tumour-bearing, EL4 tumour | -0.25 |
| refers to: alpha-ketoglutarate | mouse, EL4 tumour-bearing, EL4 tumour | -0.14 |
| refers to: gamma-glutamylglycine | mouse, EL4 tumour-bearing, EL4 tumour | -0.892 |
| refers to: thiamin | mouse, EL4 tumour, tumour | 0.0094 |

A few entries again (sample 3):
| target | test | remaining binding |
| --- | --- | --- |
| Aurora kinase B (AURKB, Homo sapiens, UniProt Q96GD4) | cell-free assay | 100% |
| CSNK1A1L (Homo sapiens, UniProt Q8N752) | cell-free assay | 82% |
| Tyrosine-protein kinase ABL1, non-phosphorylated (ABL1, Homo sapiens, UniProt P00519) | cell-free assay | 82% |
| EGFR (Homo sapiens, UniProt P00533, del747-750/T751S) | cell-free assay | 100% |
